# Experimental data pooled from the literature.
# Parts stem from different laboratories: compare values within a part only.

# Series 1 — technique: competition protein-binding microarray; form: double-stranded DNA, one strand shown; medium: in vitro; tested at: 2 µM; added: Cbf1 competitor, 0.05 µM; reading: higher = stronger binding; shared flanks, not repeated: … GTCTTGATTCGCTTGACGCTGCTG
# Target: Phosphate system positive regulatory protein PHO4, full length, GST-tagged (PHO4, Saccharomyces cerevisiae, UniProt P07270, residues 1-312)
# Notes: whole 60-bp probe, lowest competitor level
# Construct (chain): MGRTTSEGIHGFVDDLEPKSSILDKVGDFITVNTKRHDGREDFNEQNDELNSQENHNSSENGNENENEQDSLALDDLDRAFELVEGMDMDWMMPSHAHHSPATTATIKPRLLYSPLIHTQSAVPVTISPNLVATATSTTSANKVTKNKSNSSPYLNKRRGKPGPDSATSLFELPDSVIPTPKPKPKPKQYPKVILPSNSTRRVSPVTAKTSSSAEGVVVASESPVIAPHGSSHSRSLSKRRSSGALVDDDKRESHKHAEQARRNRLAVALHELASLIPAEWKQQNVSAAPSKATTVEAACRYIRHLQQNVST
Strand,fluorescence intensity [a.u.]
TGTCTTGTAATACCTTTTTTTTTAACTTTTTCAAGA,2950
GGTATGGCGCCGGATTGGGTTTTTTCATCAAGAATT,3140
TGCGCAACAACTTTTCACGTGACATTATGTCTAGAA,11800
ATACTACCACACTTTCATGTGATGAAAGGTGAAACT,5780
TGCGCAACAACTTGTAAAGTGGGTGTATGTCTAGAA,4440
ATTAGGGGACCTACACGCCTGAAAGTTTTTTAGATA,5540
AATCGTAGGATAGGTTACATGATAATTGCAATAGAT,3430
GTATAAATGTAGTTAAAAGTTTTTGTTTTGATAATT,4180

# Series 2 — technique: RNA Bind-n-Seq; form: RNA; medium: in vitro; tested at: 365 nM; reference: no-protein control; reading: higher = stronger binding
# Target: RNA binding protein fox-1 homolog 2, RRM domain, GST-SBP tag (RBFOX2, Homo sapiens, UniProt O43251-10, residues 100-194)
# Notes: natural RNA segment, single round, ends assumed
# Shared flanks, not repeated: GGGAGUUCUACAGUCCGACGAUC … UGGAAUUCUCGGGUGCCAA
# Target sequence (chain): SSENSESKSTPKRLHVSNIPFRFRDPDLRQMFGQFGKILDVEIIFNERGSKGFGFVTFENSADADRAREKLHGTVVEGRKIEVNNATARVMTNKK
Strand,RBNS enrichment (R)
GCUCCGCAUGGUUCAUUUUCUGAUGCCCACCGAGGAGCCCCAGCCCCGUCCCAGAGGCCGCUGCCCCUGAGUUCUGACACUGUGUGUUUGGGAAGGUGGGUGAGGCUGGG,1.19
AUAGUGAUUAUUUGUGGAAUUGUUGCACAUGCUCCUCAAUUGAAGGGGUUUUUUCCCUACUCAAGCAUUCGGAGACACUUUCUGUAAAUGUUAACCUUUAUGUCAGCCAU,0.348
GGAUACCAGGAGGUAUUUGGGAAGGCCAAUGGCGUGGCUCCUUUGAGGAAAUAAAACACUAAGCAUGAGCCGGCUCCGCCUCUUCUGUCUCCGCUUUCAUCCCAGGGCAC,0.774
CAUCUUCUUGUACAGUUUUUGUUUGGGUAAUGAUCACAGCAAUCCUUACACAUUUUAUGUAAACUCUUUAAUGUCUUUAAUUUGGAUUUUUGUUUCUUAGAACUUUAACA,0.552
CCCCCCAGAGCUAGAGAGAUGGGGCCCCUGCGUGGCCCGAGGGGCAGAGCUGGGCGUCACUUCGCAAGCGUCCUGCCCUGCCGGGGCGCGGGGGUGGGCUCUGGGGAAGC,1.23
GCCUUUUGCUAAGCGAUCUCUAUGCCUGGGAUGCCCUUUAUUCCAGGAGGCAUCAAGCCUCUAAAGAAUGUCUCACCUCCUCUGCCCAAAAAUGAUGCCUUUCUGUAGGC,0.325
AUGGUUCCUCUCCUAAAAGCCAUGGGCAGCAGUUUCCGAGGGCCUGCAUGAUCCACCUGCUGCACGAUCCUAUGAGGGCUUCCUGUGGCACACAGCCCUCUGGGUGCUUG,19.7
UUCUGGAAUGUUAGGAAGAGCAGCUGAGACUUCUAUCCUGAUAGAAUAAAACAACUGCCUGAUUCUAGGGUUUUCCAUUAAUAGACAGCCAUUGUUCUCUCUGGACCACA,1.68
CUACAUAGAGGCUUUUUCAGCAUUACUGUGUCGUCUCCGUGCCAGAUGUGGCAAGAUCACCAUUAGCAAAUGGAAAUUACAUUUGAAAGCCAUUAGACUUAUAGGUGAUG,0.313
GAAGACCUUUCUAGGGGGCCUGGUUCUGGACCCGCUACCACUGGCCUCAAGACUCUUUUGCCUCAGUCAAGACUGUUAUAUGUAGCUGUUGUCUUUCCUGUCCCAACCUA,0.308
ACAAAGACAGUUCAGCUCCAGACACUGAACUUGGAAUCCUUUGUCUUUGGAUUAAAAGUCAUAAACUUAAAAAAAAAAAUCUCUUUAUUCAAAAAGAUAGUUAAAUCAUG,0.767
ACCUCUGCACUGAACUUCCUAUAAGUAACUUCCACCACACUGGUUUCUACUCUCAGAACUGCCCCAGUGCUUGCUGGGUAGACUUUUCAUCUAAGACAGUGGAUUUUUCA,0.403

# Series 3 — technique: RNA Bind-n-Seq; form: RNA; medium: in vitro; tested at: 200 nM; notes: whole 134-nt RNA, ends assumed; added: 150 mM LiCl; reference: input library; reading: higher = stronger binding; all molecules: 7-deaza-guanosine replaces G
# Target: Ras GTPase-activating protein-binding protein 1, full length (G3BP1, Homo sapiens, UniProt Q13283)
# UniProt Q13283, sequence (whole entry, looked up): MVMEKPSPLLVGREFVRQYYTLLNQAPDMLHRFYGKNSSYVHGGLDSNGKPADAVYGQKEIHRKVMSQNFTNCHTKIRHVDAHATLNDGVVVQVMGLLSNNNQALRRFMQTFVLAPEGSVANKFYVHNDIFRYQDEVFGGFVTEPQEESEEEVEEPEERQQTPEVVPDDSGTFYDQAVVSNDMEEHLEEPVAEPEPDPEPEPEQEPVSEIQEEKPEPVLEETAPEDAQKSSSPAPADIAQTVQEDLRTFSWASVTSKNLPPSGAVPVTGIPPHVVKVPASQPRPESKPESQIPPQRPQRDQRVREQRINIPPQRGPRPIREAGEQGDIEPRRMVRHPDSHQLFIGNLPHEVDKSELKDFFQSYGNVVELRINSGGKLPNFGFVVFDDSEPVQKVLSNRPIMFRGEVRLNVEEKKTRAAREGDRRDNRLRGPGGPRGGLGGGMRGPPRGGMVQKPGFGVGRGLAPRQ
# Shared flanks, not repeated: GGGAGUUCUACAGUCCGACGAUC … UGGAAUUCUCGGGUGUCAAGG
Strand,log2 enrichment
UCCUGUGCUACACAUCGUAUGUACCGAAUCGGGUUUUUGGGGUUUUUGGGGUUUUUGGGAAAGUAUUAUGUUACGCCGUUCGGAUCUGCA,0.894
CUGUGCUACACAUCGUAUGUACCGAAUCGGUUUUUUUGGGUUUUUUUGGGUUUUUUUGGGGAAAGUAUUAUGUUACGCCGUUCGGAUCUG,1.23
GCAGGAAGUAAAAACAAAUGGAAAUGCUUCGGAUAGUGGCAAAGGUGGGGGUUGCUAAGGAAAGGGUGGGAUGGGAGUGGGUAAAGAGUU,0.114
CUGUGCUACACAUCGUAUGUACCGAAUCGGCCCCCCCGGGGCCCCCCCGGGCCCCCCCGGGGAAAGUAUUAUGUUACGCCGUUCGGAUCU,-1.14
CCUCAAGUCCUGUGCUACACAUCGUAUGUACCGAAUCGGUUGGGUUGGGUUGGAAAGUAUUAUGUUACGCCGUUCGGAUCUGCACUUCCA,0.102
UUUGAGGUCAAACGCCGCGGGGAACUGCAGCUGAUUAAGAUCUUCCAAUCCUCGGUGUUUGAGGCCUUCCUCAAGGGCAGCACGCUGGAA,-1.69
CCUGUGCUACACAUCGUAUGUACCGAAUCGGGAAAAAAGGGGAAAAAAGGGAAAAAAGGGAAAGUAUUAUGUUACGCCGUUCGGAUCUGC,0.0313
GUCCUGUGCUACACAUCGUAUGUACCGAAUCGGGGAAAGGGGUGGGGUUUUUUUGGGGAAAGUAUUAUGUUACGCCGUUCGGAUCUGCAC,0.0134
CUCAAGUCCUGUGCUACACAUCGUAUGUACCGAAUCGGAGGUUUUUGGAAAGGAAAGUAUUAUGUUACGCCGUUCGGAUCUGCACUUCCA,-0.133

# Further values, each from its own experiment
Substance,target,assay,test system,conditions,how to read,measurement,result
"PhoQ, residues 284 288 289 292 302 303 TLSLKA","PhoP, residues 12 14 15 18 19 LHHSG (Escherichia coli, UniProt P23836)","Sort-seq, refers to: YFP reporter",E. coli,"PhoQ-PhoP variant library, added: 10 µM Mg2+","reference: high Mg2+ state, higher = stronger signaling",fold induction,0.946

# Some of these lines once more (series 2):
Strand,RBNS enrichment (R)
GAAGACCUUUCUAGGGGGCCUGGUUCUGGACCCGCUACCACUGGCCUCAAGACUCUUUUGCCUCAGUCAAGACUGUUAUAUGUAGCUGUUGUCUUUCCUGUCCCAACCUA,0.308
GCUCCGCAUGGUUCAUUUUCUGAUGCCCACCGAGGAGCCCCAGCCCCGUCCCAGAGGCCGCUGCCCCUGAGUUCUGACACUGUGUGUUUGGGAAGGUGGGUGAGGCUGGG,1.19
AUGGUUCCUCUCCUAAAAGCCAUGGGCAGCAGUUUCCGAGGGCCUGCAUGAUCCACCUGCUGCACGAUCCUAUGAGGGCUUCCUGUGGCACACAGCCCUCUGGGUGCUUG,19.7
CAUCUUCUUGUACAGUUUUUGUUUGGGUAAUGAUCACAGCAAUCCUUACACAUUUUAUGUAAACUCUUUAAUGUCUUUAAUUUGGAUUUUUGUUUCUUAGAACUUUAACA,0.552
